Experimental data of several laboratories.
Numbered parts are unrelated; each lists some results of a single study.

Sample 1
Target: Interferon regulatory factor 7, full length, phosphomimetic (IRF7, Homo sapiens, UniProt Q92985, residues 1-503, S101K/S471D/S472D/S475D/S476D/S477D/S483D/S484D/S487D)
Chain of UniProt Q92985 (whole entry, unmodified, looked up): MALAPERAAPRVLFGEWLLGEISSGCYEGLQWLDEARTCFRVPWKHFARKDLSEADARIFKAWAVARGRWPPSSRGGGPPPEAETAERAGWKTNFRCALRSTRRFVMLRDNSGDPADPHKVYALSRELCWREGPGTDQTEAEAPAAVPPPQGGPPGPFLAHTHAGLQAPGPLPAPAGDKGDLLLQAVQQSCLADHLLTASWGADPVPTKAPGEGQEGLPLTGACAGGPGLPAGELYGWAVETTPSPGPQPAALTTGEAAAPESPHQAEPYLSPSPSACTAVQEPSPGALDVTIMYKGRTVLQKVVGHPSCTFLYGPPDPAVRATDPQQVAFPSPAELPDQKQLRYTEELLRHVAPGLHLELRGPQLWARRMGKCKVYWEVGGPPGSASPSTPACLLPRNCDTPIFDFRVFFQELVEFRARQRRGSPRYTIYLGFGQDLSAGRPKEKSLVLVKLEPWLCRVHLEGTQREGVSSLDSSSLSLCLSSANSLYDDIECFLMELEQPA
Method: protein-binding microarray
Form: double-stranded DNA, one strand shown
Matrix: in vitro
Tested at: 250 nM
Notes: 60-bp whole probe
Added: salmon DNA 0.4 mg/ml
Relative to: random background probes
Direction: higher = stronger binding
All sequences stand within: GCCTAGCAC … GTCTTGATTCGCTTGACGCTGCTG
Strand | log fluorescence [z-score]
TTAGGTTTCGGGACTGTGTTAGTGCTA | 3.92
TTAGGGCTGGGTCTCGGTTAGTGCTAG | -0.0859
GACGGACTGGGACTGAGGACGTGCTAG | -0.774
TCAGTTCTTAGCTTGGGACTGTGCTAG | 0.888
GACGAACTGGGGTTTAGAGACGTGCTA | -0.756
GACGAGCTCAGTCTCGAGACGTGCTAG | 0.2
GACCGTTTCGGTTTCGGGACGTGCTAG | 11
TTAGGTCTCATTATCCTTTAGTGCTAG | 1.06
TCAGGTTGAACATGAACACTGTGCTAG | -0.239

Sample 2
Target: Histone acetyltransferase KAT6A, both winged helices, GST fusion (KAT6A, Homo sapiens, UniProt Q92794, residues 1-181)
Method: protein binding microarray
Form: double-stranded DNA, one strand shown
Matrix: in vitro
Tested at: not given
Notes: 8-mer, flanks averaged, mean of 2 arrays, mostly near background
Relative to: not given
Direction: higher = stronger binding
Residues (chain): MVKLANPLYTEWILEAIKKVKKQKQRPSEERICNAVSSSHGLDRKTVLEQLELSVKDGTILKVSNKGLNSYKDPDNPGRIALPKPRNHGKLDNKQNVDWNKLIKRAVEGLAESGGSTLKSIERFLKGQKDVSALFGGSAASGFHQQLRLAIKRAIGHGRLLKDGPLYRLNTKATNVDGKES
Strand | E-score
GTCATATA | -0.0869
ACTCCGAT | 0.013
CAGAACCA | -0.017
GAAAGACC | -0.0525
CGCAAGGC | 0.0151
CATCCAGG | -0.093
CTTCATTA | -0.0128

Sample 3
Target: Ras GTPase-activating protein-binding protein 1, C-terminal RGG region (G3BP1, Homo sapiens, UniProt Q13283)
Chain of UniProt Q13283 (whole entry, looked up): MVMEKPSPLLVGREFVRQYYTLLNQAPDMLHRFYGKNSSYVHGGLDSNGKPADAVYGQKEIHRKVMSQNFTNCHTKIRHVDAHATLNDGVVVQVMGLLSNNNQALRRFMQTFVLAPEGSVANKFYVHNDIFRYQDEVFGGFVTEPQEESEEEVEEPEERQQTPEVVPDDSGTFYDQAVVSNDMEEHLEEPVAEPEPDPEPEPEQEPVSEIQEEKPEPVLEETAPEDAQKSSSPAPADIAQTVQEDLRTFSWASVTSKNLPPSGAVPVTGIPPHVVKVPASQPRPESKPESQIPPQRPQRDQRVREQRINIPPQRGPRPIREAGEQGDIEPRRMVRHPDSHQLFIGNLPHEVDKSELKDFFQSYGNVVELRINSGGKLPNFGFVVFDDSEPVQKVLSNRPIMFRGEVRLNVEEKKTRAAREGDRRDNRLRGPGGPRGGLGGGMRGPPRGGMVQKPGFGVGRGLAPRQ
Method: RNA Bind-n-Seq
Form: RNA
Matrix: in vitro
Tested at: 1 µM
Notes: whole 134-nt RNA, ends assumed
Added: 150 mM KCl
Relative to: input library
Direction: higher = stronger binding
Strand | log2 enrichment
GGGAGUUCUACAGUCCGACGAUCCACAGACAACACGCGCCCACACAGACACAGAGGGAAGGGGUUGGGAUGGGGACAGGGUGCACAGCAGGGCGGGGUAGGACCCCAGCCCCUUGGAAUUCUCGGGUGUCAAGG | -0.174
GGGAGUUCUACAGUCCGACGAUCCCUCAAGUCCUGUGCUACACAUCGUAUGUACCGAAUCGGGCGGCGGGGCGGGGAAAGUAUUAUGUUACGCCGUUCGGAUCUGCACUUCCAUGGAAUUCUCGGGUGUCAAGG | 0.813
GGGAGUUCUACAGUCCGACGAUCCCUGUGCUACACAUCGUAUGUACCGAAUCGGGUUUUUUUGGUUUUUUUGGUUUUUUUGGGGAAAGUAUUAUGUUACGCCGUUCGGAUCUGUGGAAUUCUCGGGUGUCAAGG | -1.85
GGGAGUUCUACAGUCCGACGAUCAGUCCUGUGCUACACAUCGUAUGUACCGAAUCGGGGUGGGGAAAAAAAGGGGAGGGGAAAGUAUUAUGUUACGCCGUUCGGAUCUGCACUUGGAAUUCUCGGGUGUCAAGG | 2.32

Single results of other studies
Molecule | target | assay | test system | conditions | how to read | quantity | result
PhoQ, residues 284 288 289 292 302 303 SLKLQV | PhoP, residues 12 14 15 18 19 GHCSL (Escherichia coli, UniProt P23836) | Sort-seq, measured: YFP reporter | E. coli | PhoQ-PhoP variant library, added: 10 µM Mg2+ | relative to: high Mg2+ state, higher = stronger signaling | fold induction | 8.85

For quick reference, copied from above (sample 3):
Strand | log2 enrichment
GGGAGUUCUACAGUCCGACGAUCCCUCAAGUCCUGUGCUACACAUCGUAUGUACCGAAUCGGGCGGCGGGGCGGGGAAAGUAUUAUGUUACGCCGUUCGGAUCUGCACUUCCAUGGAAUUCUCGGGUGUCAAGG | 0.813
GGGAGUUCUACAGUCCGACGAUCCCUGUGCUACACAUCGUAUGUACCGAAUCGGGUUUUUUUGGUUUUUUUGGUUUUUUUGGGGAAAGUAUUAUGUUACGCCGUUCGGAUCUGUGGAAUUCUCGGGUGUCAAGG | -1.85
